Published values collected from several papers.
Compare with care: the assays were run in different laboratories. Numbers after ± are the reported error.

CC(=O)NCC(=O)NCC(=O)N[C@@H](CCCCNP(=O)(O)O)C(=O)NCC(=O)NCC(N)=O  initial velocity (non-enzymatic hydrolysis; 100 µM, pH 7.8, no enzyme): 4.95e-09 M/s
CC[C@H](C)[C@H](NC(=O)[C@@H](Cc1ccccc1)NC)C(=O)N[C@@H](CO)C(=O)N[C@H](CCC(N)=O)C(=O)N[C@@H](C(=O)N[C@H](C(=O)N[C@@H](CO)C(=O)N[C@H]1C(=O)N[C@@H](C)C(=O)N[C@@H](C2CCCCC2)C(=O)N[C@@H]([C@@H](C)CC)C(=O)O[C@H]1C)[C@@H](C)CC)[C@@H](C)CC  acetonitrile share for dissolution (acetonitrile-water; TFA salt): ~40%
CC(CCC(=O)NCC(=O)O)C1CCC2C3CCC4CC(OC5OC(C(=O)O)C(O)C(O)C5O)CCC4(C)C3CC(O)C12C (stereo not shown)  plasma concentration (human, SLCO1B1 *15/*15, plasma; geometric mean, sex-adjusted): 345 ng/mL
CN(C)C(CNC(=O)Nc1cc(C(F)(F)F)ccc1N1CCOCC1)c1ccncc1 (stereo not shown)  amylase (mouse, serum; intraperitoneal, 120 mg/kg single dose): 559 U/L
CC[C@H](C)[C@H](NC(=O)[C@H](CCC(=O)O)NC(=O)[C@H](CCC(=O)O)NC(=O)[C@H](Cc1ccccc1)NC(=O)[C@H](CC(=O)O)NC(=O)CNC(=O)[C@H](CC(N)=O)NC(=O)CNC(=O)CNC(=O)CNC(=O)CNC(=O)[C@@H]1CCCN1C(=O)[C@H](CCCNC(=N)N)NC(=O)[C@@H]1CCCN1C(=O)[C@H](N)Cc1ccccc1)C(=O)N1CCC[C@H]1C(=O)N[C@@H](CCC(=O)O)C(=O)N[C@@H](CCC(=O)O)C(=O)N[C@@H](Cc1ccc(O)cc1)C(=O)N[C@@H](CC(C)C)C(=O)O  concentration (LC-MS/MS; human plasma; 75 days, -80 °C, stability, nominal 3.0 ng/mL): 2.97 ± 0.1 ng/mL
Cc1ccc(OCC(=O)N(Cc2cccs2)c2ccn[nH]2)cc1  total corpora lutea count (Crl:CD(SD) rat, bred female; oral, 125 mg/kg/day, total per group, developmental toxicity): 433
[11CH3]n1c(=O)n(CCCO)c(=O)c2c1nc(Oc1cccc(OC(F)(F)F)c1)n2Cc1ccc(Cl)cc1  tracer uptake (ex vivo biodistribution; Sprague Dawley rat, lung; 5 min post injection): 1.65 ± 0.44 %ID/g
CCCC[C@H](NC(=O)[C@H](Cc1c[nH]c2ccccc12)NC(=O)CNC(=O)[C@H](Cc1ccc(O)cc1)NC(=O)[C@H](C)NC(=O)[C@H](CCC(=O)O)NC(=O)[C@H](Cc1c[nH]cn1)NC(=O)[C@H](Cc1c[nH]cn1)NC(=O)[C@H](Cc1c[nH]cn1)NC(=O)[C@H](Cc1c[nH]cn1)NC(=O)[C@H](Cc1c[nH]cn1)NC(=O)[C@H](Cc1c[nH]cn1)NC(=O)CN1CCN(CC(=O)O)CCN(CC(=O)O)CCN(CC(=O)O)CC1)C(=O)N[C@@H](CC(=O)O)C(=O)N[C@@H](Cc1ccccc1)C(N)=O  tumour-to-kidney ratio (MF1 nude mouse, male, HT29-CCK2R xenograft; intravenous, 0.2 µg, 4 h, 111In-labelled; relative to: tumour over kidney): 0.05
COc1ccc(C)cc1NC(=O)OC1CC2CCCC(C1)N2Cc1ccc(CC[18F])cc1 (stereo not shown)  tracer uptake (mouse, blood; 30 min, tumour-bearing): 0.99 %ID/g
CC(C)[C@H](NC(=O)[C@@H](NC(=O)[C@H](CCCNC(=N)N)NC(=O)[C@H](CCCNC(=N)N)NC(=O)[C@H](CCCNC(=N)N)NC(=O)[C@H](CCC(N)=O)NC(=O)[C@H](CCCNC(=N)N)NC(=O)[C@H](CCCNC(=N)N)NC(=O)[C@H](CCCCN)NC(=O)[C@H](CCCCN)NC(=O)[C@H](CCCNC(=N)N)NC(=O)CN)[C@@H](C)O)C(=O)N[C@H](C(=O)N[C@@H](CO)C(=O)N1CCC[C@H]1C(=O)O)[C@@H](C)O  day of death (mouse ICR, male; intranasal, 500 mg/kg single): 13 days
COc1ccc(F)cc1S(=O)(=O)Nc1cnc2c(c1)C(=O)NCCO2  unbound fraction (ultracentrifugation; rat plasma): 0.141 to 0.147
CC(C)[C@H](NC(=O)CNC(=O)[C@H](CCC(N)=O)NC(=O)[C@H](C)N)C(=O)O  subjects with adverse events (severe intensity; human; 10 mg/kg, 3 days, thrice daily dosing): 0%
[2H]C([2H])([2H])C([2H])([2H])C([2H])([2H])OC(C(=O)OC1CCNCC1)(c1ccccc1)c1ccccc1  adverse drug reactions (refers to: wound; healthy Japanese male; oral, 10 mg, 16 days, multiple ascending dose): 0%
CC(C)[C@H]1NC(=O)C[C@H]2/C=C/CCSSC[C@@H](NC1=O)C(=O)N[C@H](Cc1cccc3ccccc13)C(=O)NCC(=O)O2  C0 (nude mouse, blood; intravenous, 4 mg/kg): 46.8 ng/mL
CC(C)C[C@@H](NC(=O)[C@@H](CCCNC(=N)N)NC(=O)[C@@H](Cc1c[nH]cn1)NC(=O)[C@@H](Cc1c[nH]c2ccccc12)NC(=O)[C@@H](Cc1c[nH]cn1)NC(=O)[C@@H](Cc1ccccc1)NC(=O)[C@H](NC(=O)[C@@H](Cc1ccc(O)cc1)NC(=O)CNC(=O)CNC(=O)CCOCCOCCOCCNC(=O)CN1CCN(CC(=O)O)CCN(CC(=O)O)CC1)[C@H](C)O)C(=O)N[C@H](CC(N)=O)C(=O)N1CCC[C@@H]1C(=O)O [gallium-68 labelled]  tumour-to-tissue ratio (male C57BL/6 mice; intravenous, 1.85 MBq, 60 min, added: antibody blocking; relative to: tumour over muscle): 8.06 ± 1.9
CN[C@](C)(C[18F])C(=O)O  tissue uptake (SCID mouse DU-145 xenograft, spleen; 120 min, post injection): 5.7 ± 1.8 %ID/g
CC[C@H](C)C(=O)N1CCC(NC(=O)Nc2ccc(OC(F)(F)F)c(F)c2)CC1  AUC(0-t) (human, plasma; oral, 8 mg, single dose, fasted): 1.31 µg·h/mL
C[S]1CC[S]2CC[P](CO)(CO)[99Tc+]12.[C-]#[O+].[C-]#[O+].[C-]#[O+]  uptake in large intestine (CF-1 mouse; intravenous, 4 h): 52.4 %ID
CC(C)C[C@H](NC(=O)[C@H](CCCCN)NC(=O)[C@H](CCC(=O)O)NC(=O)[C@H](C)NC(=O)[C@@H](NC(=O)[C@H](CCCCN)NC(=O)[C@H](CC(=O)O)NC(=O)[C@H](Cc1ccc(O)cc1)NC(=O)[C@H](Cc1ccccc1)NC(=O)[C@H](C)NC(=O)[C@H](CCCCN)NC(=O)[C@H](CC(C)C)NC(=O)[C@H](Cc1c[nH]c2ccccc12)NC(=O)[C@@H](N)CC(=O)O)C(C)C)C(=O)N[C@@H](CCCCN)C(=O)N[C@@H](CCC(=O)O)C(=O)N[C@@H](C)C(=O)N[C@@H](Cc1ccccc1)C(=O)N1CCC[C@H]1C(=O)N[C@@H](CC(=O)O)C(=O)N[C@@H](Cc1c[nH]c2ccccc12)C(=O)N[C@@H](C)C(=O)N[C@@H](CCCCN)C(=O)N[C@@H](C)C(=O)N[C@@H](C)C(=O)N[C@@H](Cc1ccc(O)cc1)C(=O)N[C@@H](CC(=O)O)C(=O)N[C@@H](CCCCN)C(=O)N[C@@H](C)C(=O)N[C@@H](C)C(=O)N[C@@H](CCC(=O)O)C(=O)N[C@@H](CCCCN)C(=O)N[C@@H](C)C(=O)N[C@@H](CCCCN)C(=O)N[C@@H](CCC(=O)O)C(=O)N[C@@H](C)C(=O)N[C@@H](C)C(=O)O  AUC(0-last) (cynomolgus monkey female, plasma; intravenous infusion, 75 mg/kg every other day, day 27): 7100 µg·h/mL
COC(=O)C[C@](O)(CCCC(C)(C)OC(C)=O)C(=O)O[C@@H]1C(OC)=C[C@]23CCCN2CCc2cc4c(cc2[C@H]13)OCO4  tissue concentration (CD1 mouse, pancreas; subcutaneous, 1 mg/kg, 24 h, below quantification limit 1.00 ng/mL): not detected
COc1cccc2c1C(=O)c1c(O)c3c(c(O)c1C2=O)CC(O)(C(CO)=NNC(=O)CCCCC(=O)NNC(=O)CCCc1ccc(I)cc1)CC3OC1CC(N)C(O)C(C)O1 (stereo not shown)  toxicity (athymic nude mice, KPC tumours; 20 mg/kg, KPC and KPC Cav1-/- tumours): not toxic
CSCC[C@@H]1NC(=O)[C@@H]2CSSC[C@H](NC(=O)[C@H](CO)NC(=O)[C@H](C)N)C(=O)N[C@@H](CCCNC(=N)N)C(=O)N[C@@H]([C@@H](C)O)C(=O)N3CCC[C@H]3C(=O)N[C@@H](CCCCN)C(=O)N[C@@H](CC(=O)O)C(=O)N[C@H]3CSSC[C@H](NC(=O)[C@H](CCCCN)NC(=O)[C@H](CCCNC(=N)N)NC(=O)[C@H](CC(N)=O)NC1=O)C(=O)N[C@@H](CCCCN)C(=O)N[C@H]1CSSC[C@H](NC(=O)[C@@H]4CCCN4C(=O)[C@H](CC(=O)O)NC(=O)[C@H](C)NC3=O)C(=O)N[C@@H](C)C(=O)N[C@@H](CCCCN)C(=O)N[C@@H](CCC(=O)O)C(=O)N[C@@H]([C@@H](C)O)C(=O)NCC(=O)N[C@@H](CSSC[C@@H](C(N)=O)NC(=O)[C@H](CCCNC(=N)N)NC(=O)[C@H](CC(N)=O)NC1=O)C(=O)N1CCC[C@H]1C(=O)N[C@@H](Cc1ccc(O)cc1)C(=O)NCC(=O)N[C@@H](CCCCN)C(=O)N2  direct bilirubin (DA rat, pristane-induced arthritis, serum; subcutaneous, single 0.1 mg/kg at onset, end of 21-day trial): 0.002 mg/dL
N=C(N)NCc1ccc(C(=O)NCCCC[C@H](NC(=O)N[C@@H](CCC(=O)O)C(=O)O)C(=O)O)cc1[211At]  tissue uptake (SCID mouse, PC-3 xenografts, bone; 4 h): 0.36 ± 0.17 %ID/g
C[C@H](CC(=O)C[C@@H](C)[C@H]1C[C@H](O)[C@@]2(C)C3=C(C(=O)C[C@]12C)[C@@]1(C)CCC(=O)C(C)(C)[C@@H]1C[C@@H]3O)C(=O)O  pancreas histopathology (normal mouse, pancreas; 20 mg/kg): no effect
CC[C@H](C)[C@H](NC(=O)[C@H](CCCCN)NC(=O)CNC(=O)[C@H](CC(C)C)NC(=O)[C@@H](NC(=O)[C@H](C)NC(=O)[C@H](CCCCN)NC(=O)CNC(=O)[C@H](C)NC(=O)CNC(=O)[C@H](CCCCN)NC(=O)[C@H](CCSC)NC(=O)[C@H](CCCCN)NC(=O)[C@@H](NC(=O)[C@H](Cc1c[nH]c2ccccc12)NC(=O)[C@H](CC(C)C)NC(=O)[C@H](CCC(=O)O)NC(=O)[C@H](CCCCN)NC(=O)[C@H](CC(C)C)NC(=O)[C@@H](N)CC(C)C)[C@@H](C)O)C(C)C)C(=O)N[C@@H](CCCCN)C(=O)NCC(=O)N[C@@H](CC(C)C)C(=O)N[C@@H](CC(C)C)C(=O)O  Stern-Volmer constant (acrylamide quenching; POPE:DOPG 3:1 vesicles; 2 µM, 250 µM total lipid, added: acrylamide): 1.51 ± 0.08 M⁻¹
C/C=C/C=C/C/C=C/CCCCCCCc1cccc(O)c1O  tissue concentration (female Kunming mice, tumour-bearing, spleen; intravenous, 10 mg/kg, 0.083 h): 13300 ± 1650 ng/g
O=C(O)CCCN1CCN2CCN(CC1)CC(=O)[O][Al]([18F])[O]C(=O)C2  bowel uptake (Sprague-Dawley rat, normal, intestines and stomach; 10 min): 1.2 ± 0.3 %ID
CC=C(C)C(=O)OC1C2C3(C)CCC(OC4CC(OC)C(OC5OC(C)C(O)C(OC)C5O)C(C)O4)CC3CCC23OC32CCC(C(C)=O)C2(C)C1OC(C)=O (stereo not shown)  Papp B→A (Caco-2; 10 µM): 9.12 ×10⁻⁶ cm/s

For quick reference, copied from above:
[2H]C([2H])([2H])C([2H])([2H])C([2H])([2H])OC(C(=O)OC1CCNCC1)(c1ccccc1)c1ccccc1  adverse drug reactions (refers to: wound; healthy Japanese male; oral, 10 mg, 16 days, multiple ascending dose): 0%
CC(C)[C@H]1NC(=O)C[C@H]2/C=C/CCSSC[C@@H](NC1=O)C(=O)N[C@H](Cc1cccc3ccccc13)C(=O)NCC(=O)O2  C0 (nude mouse, blood; intravenous, 4 mg/kg): 46.8 ng/mL
CC(C)C[C@@H](NC(=O)[C@@H](CCCNC(=N)N)NC(=O)[C@@H](Cc1c[nH]cn1)NC(=O)[C@@H](Cc1c[nH]c2ccccc12)NC(=O)[C@@H](Cc1c[nH]cn1)NC(=O)[C@@H](Cc1ccccc1)NC(=O)[C@H](NC(=O)[C@@H](Cc1ccc(O)cc1)NC(=O)CNC(=O)CNC(=O)CCOCCOCCOCCNC(=O)CN1CCN(CC(=O)O)CCN(CC(=O)O)CC1)[C@H](C)O)C(=O)N[C@H](CC(N)=O)C(=O)N1CCC[C@@H]1C(=O)O [gallium-68 labelled]  tumour-to-tissue ratio (male C57BL/6 mice; intravenous, 1.85 MBq, 60 min, added: antibody blocking; relative to: tumour over muscle): 8.06 ± 1.9
CN[C@](C)(C[18F])C(=O)O  tissue uptake (SCID mouse DU-145 xenograft, spleen; 120 min, post injection): 5.7 ± 1.8 %ID/g
